{"data": "Measurements of several laboratories", "note": "Parts stem from different laboratories: compare values within a part only. Changes are numbered by the printed parent chain.", "chain of UniProt P28335 (whole entry, looked up)": "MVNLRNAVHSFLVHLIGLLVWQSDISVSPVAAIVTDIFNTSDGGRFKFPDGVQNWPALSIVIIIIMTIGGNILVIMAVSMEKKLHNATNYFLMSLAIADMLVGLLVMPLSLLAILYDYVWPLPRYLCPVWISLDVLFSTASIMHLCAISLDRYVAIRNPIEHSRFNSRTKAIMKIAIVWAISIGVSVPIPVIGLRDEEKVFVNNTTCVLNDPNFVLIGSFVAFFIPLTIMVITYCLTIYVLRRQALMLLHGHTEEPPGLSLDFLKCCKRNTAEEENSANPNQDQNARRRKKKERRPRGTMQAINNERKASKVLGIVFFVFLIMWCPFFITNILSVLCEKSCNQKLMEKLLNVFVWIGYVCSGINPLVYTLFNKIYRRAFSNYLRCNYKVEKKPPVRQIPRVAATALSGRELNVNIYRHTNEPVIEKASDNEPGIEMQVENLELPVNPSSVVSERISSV", "chain of UniProt P35372 (whole entry, looked up)": "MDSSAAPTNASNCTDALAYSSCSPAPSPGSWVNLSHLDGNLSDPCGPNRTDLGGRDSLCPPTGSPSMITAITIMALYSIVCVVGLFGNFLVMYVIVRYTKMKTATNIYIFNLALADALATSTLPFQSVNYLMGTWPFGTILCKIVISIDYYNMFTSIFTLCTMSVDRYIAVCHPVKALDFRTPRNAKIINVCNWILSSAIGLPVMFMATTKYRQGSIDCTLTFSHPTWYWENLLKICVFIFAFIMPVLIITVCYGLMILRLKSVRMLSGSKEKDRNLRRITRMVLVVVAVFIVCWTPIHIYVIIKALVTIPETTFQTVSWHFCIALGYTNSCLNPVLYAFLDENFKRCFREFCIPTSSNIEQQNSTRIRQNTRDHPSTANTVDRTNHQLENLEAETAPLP", "chain of UniProt Q8RYC8 (whole entry, looked up)": "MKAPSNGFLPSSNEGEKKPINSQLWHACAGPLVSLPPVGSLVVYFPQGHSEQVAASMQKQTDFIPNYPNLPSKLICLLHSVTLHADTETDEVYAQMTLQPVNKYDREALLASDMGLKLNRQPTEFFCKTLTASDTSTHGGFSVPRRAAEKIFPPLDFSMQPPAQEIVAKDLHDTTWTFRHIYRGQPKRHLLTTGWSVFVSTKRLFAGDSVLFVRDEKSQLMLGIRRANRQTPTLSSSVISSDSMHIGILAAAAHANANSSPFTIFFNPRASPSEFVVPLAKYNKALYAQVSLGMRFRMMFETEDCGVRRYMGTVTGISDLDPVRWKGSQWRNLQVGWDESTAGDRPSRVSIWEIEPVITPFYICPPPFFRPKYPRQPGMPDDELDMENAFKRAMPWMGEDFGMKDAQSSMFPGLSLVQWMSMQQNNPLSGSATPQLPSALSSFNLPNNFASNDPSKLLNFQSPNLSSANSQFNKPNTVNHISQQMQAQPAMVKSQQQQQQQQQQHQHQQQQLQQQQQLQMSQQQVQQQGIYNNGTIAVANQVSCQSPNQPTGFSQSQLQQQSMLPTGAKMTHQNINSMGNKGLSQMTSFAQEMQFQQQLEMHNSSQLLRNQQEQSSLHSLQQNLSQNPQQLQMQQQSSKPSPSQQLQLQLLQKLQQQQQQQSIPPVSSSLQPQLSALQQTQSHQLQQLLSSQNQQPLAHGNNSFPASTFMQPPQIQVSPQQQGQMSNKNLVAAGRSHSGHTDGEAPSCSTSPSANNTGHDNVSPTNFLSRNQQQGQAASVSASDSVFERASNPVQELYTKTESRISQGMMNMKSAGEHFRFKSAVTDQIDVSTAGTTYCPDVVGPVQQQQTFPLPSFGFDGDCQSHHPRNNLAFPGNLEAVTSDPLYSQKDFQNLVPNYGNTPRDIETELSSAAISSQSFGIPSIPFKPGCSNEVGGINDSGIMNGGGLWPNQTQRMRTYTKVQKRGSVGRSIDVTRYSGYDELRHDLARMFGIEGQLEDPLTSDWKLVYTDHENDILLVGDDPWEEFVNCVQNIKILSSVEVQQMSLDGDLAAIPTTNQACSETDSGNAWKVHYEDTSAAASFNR", "chain of UniProt Q84WU6 (whole entry, looked up)": "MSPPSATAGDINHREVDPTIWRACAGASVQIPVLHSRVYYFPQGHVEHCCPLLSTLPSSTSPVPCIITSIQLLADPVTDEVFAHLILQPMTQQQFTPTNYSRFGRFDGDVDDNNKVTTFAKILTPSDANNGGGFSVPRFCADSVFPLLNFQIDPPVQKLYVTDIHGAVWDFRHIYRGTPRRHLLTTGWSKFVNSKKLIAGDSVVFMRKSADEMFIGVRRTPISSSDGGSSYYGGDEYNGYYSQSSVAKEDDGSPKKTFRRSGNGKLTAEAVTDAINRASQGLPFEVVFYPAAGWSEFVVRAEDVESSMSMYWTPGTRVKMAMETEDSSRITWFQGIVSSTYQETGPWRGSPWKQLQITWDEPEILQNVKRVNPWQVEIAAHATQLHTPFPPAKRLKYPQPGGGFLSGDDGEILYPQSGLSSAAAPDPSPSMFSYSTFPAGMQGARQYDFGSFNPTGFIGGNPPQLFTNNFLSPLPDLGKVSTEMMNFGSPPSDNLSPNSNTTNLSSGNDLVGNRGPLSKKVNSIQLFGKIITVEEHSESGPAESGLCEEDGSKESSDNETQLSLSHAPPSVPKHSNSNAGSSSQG"}
{"data": "Block 1", "target": "CCNF, cyclin fold, Cln2 fusion (human)", "technique": "yeast growth competition, sequencing", "medium": "yeast", "notes": "strong parent motif", "reference": "not given", "direction": "higher = stronger binding", "starting sequence": "viral docking peptide; YKVKRRLVFGADD"}
{"Substitution": "YKVKRRLVGGADD [F9G]", "normalised enrichment score": 0.797}
{"Substitution": "YKVKRRLVPGADD [F9P]", "normalised enrichment score": 1.29}
{"Substitution": "YKVKRRLWFGADD [V8W]", "normalised enrichment score": 9.62}
{"Substitution": "YKVKWRLVFGADD [R5W]", "normalised enrichment score": 1.67}
{"data": "Block 2", "target": "PABPC1L2, full length, GST fusion (mouse, UniProt A0ABA7IW68)", "technique": "RNAcompete", "form": "RNA", "medium": "in vitro", "concentration": "20 nM", "notes": "7-mer, probes averaged, single round", "reference": "mean of 7-mers", "direction": "higher = stronger binding", "Construct (chain)": "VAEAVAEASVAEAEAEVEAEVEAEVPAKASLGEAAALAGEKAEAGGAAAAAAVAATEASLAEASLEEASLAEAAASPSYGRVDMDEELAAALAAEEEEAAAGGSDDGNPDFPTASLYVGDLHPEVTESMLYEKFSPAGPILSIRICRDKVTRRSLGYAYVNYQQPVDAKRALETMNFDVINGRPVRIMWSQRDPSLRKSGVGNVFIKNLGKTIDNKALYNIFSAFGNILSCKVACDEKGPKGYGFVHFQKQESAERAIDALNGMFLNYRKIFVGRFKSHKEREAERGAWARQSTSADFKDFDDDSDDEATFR"}
{"Strand": "UCAGGUU", "7-mer Z-score": -0.278}
{"Strand": "UCCAGGU", "7-mer Z-score": -0.324}
{"Strand": "UGUCAUA", "7-mer Z-score": -0.295}
{"Strand": "GUAUAGC", "7-mer Z-score": -0.0591}
{"Strand": "UUCUGUC", "7-mer Z-score": -0.51}
{"Strand": "AUAUGUU", "7-mer Z-score": -0.195}
{"Strand": "GGGGGAG", "7-mer Z-score": 0.334}
{"Strand": "GCUCGUA", "7-mer Z-score": -0.0953}
{"data": "Block 3", "target": "HLA class I histocompatibility antigen, A alpha chain, allele A*80:01 (Homo sapiens, UniProt P04439)", "read-out": "peptide-MHC binding", "form": "peptide", "direction": "direction not given"}
{"Molecule": "FTDNNELEF", "z-score of log IC50": 0.38}
{"Molecule": "DLRPYGLIK", "z-score of log IC50": 0.38}
{"Molecule": "DAVEDFLAF", "z-score of log IC50": 0.38}
{"Molecule": "AEDLADHHV", "z-score of log IC50": 0.38}
{"Molecule": "FTIGNMFSL", "z-score of log IC50": 0.38}
{"Molecule": "GIADFIIFK", "z-score of log IC50": 0.38}
{"Molecule": "FPSNMMVVT", "z-score of log IC50": 0.38}
{"Molecule": "ALRRRTGTR", "z-score of log IC50": 0.38}
{"Molecule": "AIDDFCLFA", "z-score of log IC50": 0.38}
{"Molecule": "FWAWSVLRV", "z-score of log IC50": 0.38}
{"Molecule": "DFISMYFPW", "z-score of log IC50": 0.38}
{"Molecule": "AFMATNKAY", "z-score of log IC50": 0.38}
{"Molecule": "CRTAFKPVL", "z-score of log IC50": 0.38}
{"Molecule": "FRDEAGAIL", "z-score of log IC50": 0.38}
{"Molecule": "FHSRFVQAL", "z-score of log IC50": 0.38}
{"data": "Further values, each from its own experiment"}
{"Substance": "COc1nc2ccc([C@@](O)(c3ccccc3)C3CCN(C(C)=O)CC3)cc2c(Cl)c1Cc1ccc(-n2cccn2)cc1", "tested on": "HTR2C (Homo sapiens, UniProt P28335)", "test": "binding, radioligand binding", "setting": "10 µM", "quantity": "inhibition", "result": "21.2%"}
{"Substance": "ARF17 (Arabidopsis thaliana, UniProt Q84WU6)", "tested on": "ARF19 948-1086 (Arabidopsis thaliana, UniProt Q8RYC8)", "test": "two-hybrid", "setting": "weak activation fusion", "how to read": "reference: out of 4 tests, higher = firmer interaction", "quantity": "positive tests", "result": 0}
{"Substance": "N#CC1(c2ccccn2)CCN(Cc2cc(C(=O)N3CCCC3)c(=O)n3ccccc23)CC1", "tested on": "OPRM1 (Homo sapiens, UniProt P35372)", "test": "ligand displacement", "setting": "10 µM", "quantity": "inhibition", "result": "35%"}
